# Measurements collected from several papers.
# Numbered parts are unrelated; each lists some results of a single study. Values joined by “and” are separate records of one study, mostly repeats; a detail may differ.
# Sequence of UniProt O75914 (whole entry, looked up): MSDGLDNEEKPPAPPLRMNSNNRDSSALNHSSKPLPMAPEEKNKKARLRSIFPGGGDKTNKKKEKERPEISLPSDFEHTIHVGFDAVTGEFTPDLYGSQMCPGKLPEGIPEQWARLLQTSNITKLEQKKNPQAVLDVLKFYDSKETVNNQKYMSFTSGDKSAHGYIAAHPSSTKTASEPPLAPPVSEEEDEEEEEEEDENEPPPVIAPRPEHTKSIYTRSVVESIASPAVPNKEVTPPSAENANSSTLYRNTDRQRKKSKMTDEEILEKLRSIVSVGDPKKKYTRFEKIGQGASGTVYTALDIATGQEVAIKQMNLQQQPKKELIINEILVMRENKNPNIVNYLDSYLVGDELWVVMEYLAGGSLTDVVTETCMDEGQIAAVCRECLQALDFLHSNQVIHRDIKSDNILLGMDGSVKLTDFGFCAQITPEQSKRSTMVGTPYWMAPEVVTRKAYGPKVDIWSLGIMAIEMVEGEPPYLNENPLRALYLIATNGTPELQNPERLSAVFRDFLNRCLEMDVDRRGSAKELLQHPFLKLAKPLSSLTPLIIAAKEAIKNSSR
# Sequence of UniProt Q16288 (whole entry, looked up): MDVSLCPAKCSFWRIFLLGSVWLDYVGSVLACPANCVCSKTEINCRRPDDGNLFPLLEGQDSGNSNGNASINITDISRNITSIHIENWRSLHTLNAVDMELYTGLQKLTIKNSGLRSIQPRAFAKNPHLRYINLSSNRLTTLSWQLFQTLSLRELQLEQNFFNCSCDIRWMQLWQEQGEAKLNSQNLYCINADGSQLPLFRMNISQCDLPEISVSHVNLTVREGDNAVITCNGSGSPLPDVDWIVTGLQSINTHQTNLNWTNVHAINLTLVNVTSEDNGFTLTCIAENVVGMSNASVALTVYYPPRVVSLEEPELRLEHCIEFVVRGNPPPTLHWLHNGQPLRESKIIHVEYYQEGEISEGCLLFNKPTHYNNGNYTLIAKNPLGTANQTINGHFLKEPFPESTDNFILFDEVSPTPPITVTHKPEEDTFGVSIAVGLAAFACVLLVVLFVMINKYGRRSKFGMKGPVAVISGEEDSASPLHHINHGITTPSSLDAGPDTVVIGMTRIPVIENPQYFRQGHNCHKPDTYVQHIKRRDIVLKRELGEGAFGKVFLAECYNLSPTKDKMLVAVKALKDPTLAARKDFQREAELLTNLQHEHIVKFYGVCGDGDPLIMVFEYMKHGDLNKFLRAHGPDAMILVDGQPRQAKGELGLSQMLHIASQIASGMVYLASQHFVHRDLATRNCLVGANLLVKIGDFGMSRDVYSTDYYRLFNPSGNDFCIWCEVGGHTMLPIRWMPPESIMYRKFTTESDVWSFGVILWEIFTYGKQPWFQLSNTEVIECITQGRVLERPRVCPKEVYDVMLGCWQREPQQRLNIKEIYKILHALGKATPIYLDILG
# Sequence of UniProt Q6P2M8 (whole entry, looked up): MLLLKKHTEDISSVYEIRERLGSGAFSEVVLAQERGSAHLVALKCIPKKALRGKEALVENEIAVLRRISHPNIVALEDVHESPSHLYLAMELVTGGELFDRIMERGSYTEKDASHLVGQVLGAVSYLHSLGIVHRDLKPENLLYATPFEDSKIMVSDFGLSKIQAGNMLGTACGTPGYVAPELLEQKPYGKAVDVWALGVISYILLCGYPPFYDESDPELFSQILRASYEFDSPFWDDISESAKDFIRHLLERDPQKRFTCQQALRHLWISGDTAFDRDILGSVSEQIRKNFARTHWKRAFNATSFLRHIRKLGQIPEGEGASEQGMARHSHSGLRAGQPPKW
# Sequence of UniProt P28482 (whole entry, looked up): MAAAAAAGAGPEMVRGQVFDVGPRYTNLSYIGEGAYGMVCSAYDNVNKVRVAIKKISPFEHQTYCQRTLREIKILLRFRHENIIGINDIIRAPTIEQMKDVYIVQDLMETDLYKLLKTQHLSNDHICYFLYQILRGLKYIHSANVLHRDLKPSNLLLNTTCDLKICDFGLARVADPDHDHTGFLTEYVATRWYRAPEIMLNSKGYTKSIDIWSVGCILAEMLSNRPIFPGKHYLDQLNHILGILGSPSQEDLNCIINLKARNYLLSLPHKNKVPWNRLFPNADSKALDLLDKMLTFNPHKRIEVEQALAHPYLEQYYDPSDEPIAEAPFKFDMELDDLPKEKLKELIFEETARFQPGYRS

# Set 1
# Target: DNA polymerase theta, ATPase domain (POLQ, Homo sapiens, UniProt O75417)
# Sequence of UniProt O75417 (whole entry, unmodified, looked up): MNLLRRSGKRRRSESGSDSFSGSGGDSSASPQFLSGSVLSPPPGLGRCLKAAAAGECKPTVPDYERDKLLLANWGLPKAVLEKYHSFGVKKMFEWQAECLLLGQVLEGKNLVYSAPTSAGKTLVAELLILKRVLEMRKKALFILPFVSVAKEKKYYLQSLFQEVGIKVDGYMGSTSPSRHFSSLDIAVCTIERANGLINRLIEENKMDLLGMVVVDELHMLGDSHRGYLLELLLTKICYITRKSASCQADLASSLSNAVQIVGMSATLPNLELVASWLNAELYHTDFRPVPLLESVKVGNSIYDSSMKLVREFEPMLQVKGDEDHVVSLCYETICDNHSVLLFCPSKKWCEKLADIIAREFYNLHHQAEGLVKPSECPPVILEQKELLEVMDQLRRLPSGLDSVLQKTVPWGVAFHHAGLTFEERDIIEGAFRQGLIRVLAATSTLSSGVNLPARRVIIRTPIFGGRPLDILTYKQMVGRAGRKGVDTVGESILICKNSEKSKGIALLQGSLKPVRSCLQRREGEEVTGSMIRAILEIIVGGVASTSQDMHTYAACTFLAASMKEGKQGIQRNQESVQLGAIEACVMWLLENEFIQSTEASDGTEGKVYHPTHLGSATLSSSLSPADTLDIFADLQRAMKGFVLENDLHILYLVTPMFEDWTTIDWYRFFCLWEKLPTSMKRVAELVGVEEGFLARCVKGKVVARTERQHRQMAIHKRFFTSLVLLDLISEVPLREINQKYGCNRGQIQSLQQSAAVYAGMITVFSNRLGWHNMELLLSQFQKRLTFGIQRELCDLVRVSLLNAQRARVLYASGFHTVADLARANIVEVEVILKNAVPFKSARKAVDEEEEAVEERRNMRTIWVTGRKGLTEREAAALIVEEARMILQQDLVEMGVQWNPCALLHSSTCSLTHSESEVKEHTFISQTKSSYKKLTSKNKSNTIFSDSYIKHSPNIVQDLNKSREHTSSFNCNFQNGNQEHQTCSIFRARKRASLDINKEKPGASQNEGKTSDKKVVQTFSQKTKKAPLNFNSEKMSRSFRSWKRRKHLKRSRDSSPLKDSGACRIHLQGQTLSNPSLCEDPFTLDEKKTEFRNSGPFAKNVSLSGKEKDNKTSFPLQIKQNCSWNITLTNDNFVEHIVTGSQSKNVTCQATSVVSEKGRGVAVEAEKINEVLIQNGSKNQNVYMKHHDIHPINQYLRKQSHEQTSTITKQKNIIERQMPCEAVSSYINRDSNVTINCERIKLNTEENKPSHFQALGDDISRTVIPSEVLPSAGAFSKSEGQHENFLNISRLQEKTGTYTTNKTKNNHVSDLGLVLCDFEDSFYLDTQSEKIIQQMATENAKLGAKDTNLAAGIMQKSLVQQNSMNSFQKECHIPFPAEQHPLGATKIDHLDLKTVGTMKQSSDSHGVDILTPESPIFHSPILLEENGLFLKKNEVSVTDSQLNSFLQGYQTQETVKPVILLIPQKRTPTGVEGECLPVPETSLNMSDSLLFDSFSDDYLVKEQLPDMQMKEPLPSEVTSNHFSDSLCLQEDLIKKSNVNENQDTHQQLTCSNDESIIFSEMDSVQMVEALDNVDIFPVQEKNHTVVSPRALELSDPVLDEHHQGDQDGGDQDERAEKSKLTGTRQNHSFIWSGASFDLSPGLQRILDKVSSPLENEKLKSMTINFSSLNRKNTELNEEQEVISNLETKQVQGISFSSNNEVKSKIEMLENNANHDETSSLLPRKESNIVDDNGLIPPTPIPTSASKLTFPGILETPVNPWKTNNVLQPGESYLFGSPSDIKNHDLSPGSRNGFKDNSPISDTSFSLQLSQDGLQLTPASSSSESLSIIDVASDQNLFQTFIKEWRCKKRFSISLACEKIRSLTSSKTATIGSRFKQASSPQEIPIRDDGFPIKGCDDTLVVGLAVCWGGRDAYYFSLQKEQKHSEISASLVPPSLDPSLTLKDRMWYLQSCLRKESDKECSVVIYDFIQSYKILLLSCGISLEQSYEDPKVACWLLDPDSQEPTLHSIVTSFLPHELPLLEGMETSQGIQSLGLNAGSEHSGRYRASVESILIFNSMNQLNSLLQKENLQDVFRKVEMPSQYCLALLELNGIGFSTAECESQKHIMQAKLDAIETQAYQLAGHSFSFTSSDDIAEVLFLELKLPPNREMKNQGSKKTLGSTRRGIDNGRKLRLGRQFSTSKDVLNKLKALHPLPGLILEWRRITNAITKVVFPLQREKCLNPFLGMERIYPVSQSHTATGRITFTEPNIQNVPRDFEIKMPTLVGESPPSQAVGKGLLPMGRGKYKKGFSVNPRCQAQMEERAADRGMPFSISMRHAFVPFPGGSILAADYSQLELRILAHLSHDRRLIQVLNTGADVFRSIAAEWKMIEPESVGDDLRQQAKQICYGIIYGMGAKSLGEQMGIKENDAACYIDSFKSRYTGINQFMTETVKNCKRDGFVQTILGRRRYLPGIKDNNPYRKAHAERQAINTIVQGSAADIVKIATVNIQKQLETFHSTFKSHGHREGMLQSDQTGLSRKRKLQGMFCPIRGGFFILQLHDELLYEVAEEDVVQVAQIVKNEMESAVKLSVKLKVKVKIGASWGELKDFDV
# Read-out: enzyme activity
# Action: inhibitor
# Tested at: 77 µM
# Reference: untreated
Compound,remaining activity
COc1cccc2c1C(=O)c1c(O)c3c(c(O)c1C2=O)C[C@@](O)(C(=O)CO)C[C@@H]3O[C@H]1C[C@H](N)[C@@H](O)[C@H](C)O1,53.4%
COc1ccc2cccc(CCNC(C)=O)c2c1,107%
CCC(=O)O[C@]1(C(=O)CCl)[C@@H](C)C[C@H]2[C@@H]3C[C@H](F)C4=CC(=O)C=C[C@]4(C)[C@@]3(F)[C@@H](O)C[C@@]21C,101%
N=C(N)SCCN,96.2%
NCCCCN,105%
CCN1CCC[C@H]1CNC(=O)c1c(OC)ccc(Br)c1OC,96.4%
Cn1c([N+](=O)[O-])cnc1COC(N)=O,96.8% and 83.3%
CC1=CC(=O)NS(=O)(=O)O1,91.3%
Cc1cc(-c2ccccc2)nnc1NCCN1CCOCC1,99.1%

# Set 2
# Target: Eukaryotic initiation factor 4A-I (EIF4A1, Homo sapiens, UniProt P60842)
# Sequence of UniProt P60842 (whole entry, looked up): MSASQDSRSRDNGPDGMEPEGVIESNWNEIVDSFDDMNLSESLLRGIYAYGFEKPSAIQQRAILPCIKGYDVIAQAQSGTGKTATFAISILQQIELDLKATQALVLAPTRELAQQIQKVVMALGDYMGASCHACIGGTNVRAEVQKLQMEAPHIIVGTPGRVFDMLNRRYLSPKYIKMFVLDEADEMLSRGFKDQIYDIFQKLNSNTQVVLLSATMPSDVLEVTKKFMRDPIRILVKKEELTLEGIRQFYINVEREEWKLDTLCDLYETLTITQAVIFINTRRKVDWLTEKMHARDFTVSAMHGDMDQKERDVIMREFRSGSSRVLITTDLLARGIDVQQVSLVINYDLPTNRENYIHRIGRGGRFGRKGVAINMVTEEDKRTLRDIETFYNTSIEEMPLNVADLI
# Read-out: RNA clamping
# Method: fluorescence polarization
# Tested at: concentration not given
# Notes: mean of two replicates
# Added: FAM-labelled poly r(AG)8 RNA
Structure (SMILES),fluorescence polarization change
COC(=O)[C@H]1[C@@H](O)[C@@]2(O)c3c(OC)cc(OCc4ccccc4)cc3O[C@@]2(c2ccc(OC)cc2)[C@@H]1c1ccccc1,12.1 mP
COc1ccc([C@@]23Oc4cc(OC)cc(OC)c4[C@]2(O)C=C(C(=O)c2ccco2)[C@H]3c2ccccc2)cc1,33 mP
COc1ccc([C@@]23Oc4cc(OC)cc(OC)c4[C@@]24NC(C)=N[C@@]4(O)[C@H](C(C)=O)[C@H]3c2ccccc2)cc1,60.7 mP
COc1ccc([C@@]23Oc4cc(OC)cc(OC)c4[C@]2(NCc2ccccc2)C(=O)C[C@H]3c2ccccc2)cc1,9.9 mP
C=CCN1c2cc(OC)cc(OC)c2[C@]2(O)[C@H](O)[C@H](C(=O)OC)[C@@H](c3ccccc3)[C@]12c1ccc(OC)cc1,2.5 mP
C#CCNC(=O)CCCn1c(-c2ccccc2)nc2c(c1=O)[C@@H](c1ccccc1)[C@]1(c3ccc(OC)cc3)Oc3cc(OC)cc(OC)c3[C@]21O,22.4 mP
COCCN[C@@]12c3nc(-c4ccccc4)[nH]c(=O)c3[C@@H](c3ccccc3)[C@]1(c1ccc(OC)cc1)Oc1cc(OC)cc(OC)c12,6.6 mP
COc1ccc([C@]23Oc4cc(OC)cc(OC)c4[C@@]4(O[C@@H]5CCCN5C(=O)[C@@H]4[C@H]2c2ccccc2)[C@@H]3O)cc1,-8.3 mP

# Set 3
# Compound: CN(C)S(=O)(=O)c1ccc2c(c1)/C(=C/c1cc3c([nH]1)CCCC3)C(=O)N2
# Read-out: enzyme activity
# Action: inhibitor
# Tested at: 0.5 µM
# Reference: control
target,remaining activity [%]
"PNCK (Homo sapiens, UniProt Q6P2M8)",95.7
"PRKG2 (Homo sapiens, UniProt Q13237)",95.9
"Myosin-IIIb (MYO3B, Homo sapiens, UniProt Q8WXR4)",98.9
"DCLK2 (Homo sapiens, UniProt Q8N568)",72
"MET (Homo sapiens, UniProt P08581)",92.2
"MAP2K1 (Homo sapiens, UniProt Q02750)",88.7
"Cyclin-dependent kinase 9, with cyclin K (CDK9, Homo sapiens, UniProt P50750)",96.9
"ROCK1 (Homo sapiens, UniProt Q13464)",95.2
"PAK3 (Homo sapiens, UniProt O75914)",97.6
"CLK4 (Homo sapiens, UniProt Q9HAZ1)",50.7
"Cyclin-dependent kinase 1, with cyclin A (CDK1, Homo sapiens, UniProt P06493)",70.6
"MAPK11 (Homo sapiens, UniProt Q15759)",108
"MARK4 (Homo sapiens, UniProt Q96L34)",51.5
"MAPK1 (Homo sapiens, UniProt P28482)",101

# Set 4
# SMILES: CC(=O)Nc1c(C(C)=O)c(=O)n(C)c2nc(-c3ccc(Cl)cc3Cl)c(-c3ccc(Cl)cc3)cc12
# Read-out: cell-free assay
# Method: competition with immobilised ligand
# Tested at: 1 µM
target,remaining binding [%]
"DYRK2 (Homo sapiens, UniProt Q92630)",100
"NTRK3 (Homo sapiens, UniProt Q16288)",100
"CDKL3 (Homo sapiens, UniProt Q8IVW4)",100
"LRRK2 (Homo sapiens, UniProt Q5S007)",100
"FGFR3 (Homo sapiens, UniProt P22607)",100
"MAP3K20 (Homo sapiens, UniProt Q9NYL2)",100
"CAMK2G (Homo sapiens, UniProt Q13555)",100
